Measured values gathered from unrelated publications.
Numbered parts are unrelated; each lists some results of a single study.

Sample 1 — technique: protein binding microarray; form: double-stranded DNA, one strand shown; sample: in vitro; tested at: not given; reference: not given; direction: higher = stronger binding; measurement: E-score
Target: Histone acetyltransferase KAT6A, both winged helices, GST fusion (KAT6A, Homo sapiens, UniProt Q92794, residues 1-181)
Setting: 8-mer, flanks averaged, mean of 2 arrays, mostly near background
Construct (chain): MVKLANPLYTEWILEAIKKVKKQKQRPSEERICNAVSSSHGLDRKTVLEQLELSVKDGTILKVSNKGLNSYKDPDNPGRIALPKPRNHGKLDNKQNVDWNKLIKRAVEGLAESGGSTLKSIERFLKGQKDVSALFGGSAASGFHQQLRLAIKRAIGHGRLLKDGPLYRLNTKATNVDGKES
Strand = TCTAACAA; result = -0.0485
Strand = CCGCGTCA; result = 0.218
Strand = GCCATAAC; result = -0.105
Strand = CTTAAATA; result = -0.0611
Strand = AGATAGAG; result = -0.245
Strand = TGATGAAA; result = -0.227
Strand = CCTTCCAA; result = -0.204
Strand = GGAACTCA; result = -0.107
Strand = AATGCCAA; result = -0.225
Strand = ATAAGTAC; result = -0.0712
Strand = CACTGTAG; result = 0.0138
Strand = ACTCCCAG; result = -0.144
Strand = CGTCGATA; result = 0.225
Strand = GACGCAGA; result = 0.202
Strand = CCTCTGCA; result = -0.167
Strand = AAGGGATG; result = -0.232
Strand = ATAGTCGA; result = -0.13
Strand = CCGCTTCC; result = 0.181
Strand = CATGTGCA; result = -0.0495
Strand = CCGCCTCG; result = 0.242
Strand = GGCCGCAA; result = 0.202
Strand = CGCGCGGA; result = 0.35
Strand = GAGCGGCA; result = 0.26
Strand = CAAGTAAC; result = -0.0834
Strand = ATAGCCGA; result = 0.0709

Sample 2 — technique: RNA Bind-n-Seq; form: RNA; sample: in vitro; tested at: 1 µM; setting: whole 134-nt RNA, ends assumed; together with: 150 mM KCl; reference: input library; direction: higher = stronger binding; measurement: log2 enrichment
Target: Ras GTPase-activating protein-binding protein 1, C-terminal RGG region (G3BP1, Homo sapiens, UniProt Q13283)
UniProt Q13283, sequence (whole entry, looked up): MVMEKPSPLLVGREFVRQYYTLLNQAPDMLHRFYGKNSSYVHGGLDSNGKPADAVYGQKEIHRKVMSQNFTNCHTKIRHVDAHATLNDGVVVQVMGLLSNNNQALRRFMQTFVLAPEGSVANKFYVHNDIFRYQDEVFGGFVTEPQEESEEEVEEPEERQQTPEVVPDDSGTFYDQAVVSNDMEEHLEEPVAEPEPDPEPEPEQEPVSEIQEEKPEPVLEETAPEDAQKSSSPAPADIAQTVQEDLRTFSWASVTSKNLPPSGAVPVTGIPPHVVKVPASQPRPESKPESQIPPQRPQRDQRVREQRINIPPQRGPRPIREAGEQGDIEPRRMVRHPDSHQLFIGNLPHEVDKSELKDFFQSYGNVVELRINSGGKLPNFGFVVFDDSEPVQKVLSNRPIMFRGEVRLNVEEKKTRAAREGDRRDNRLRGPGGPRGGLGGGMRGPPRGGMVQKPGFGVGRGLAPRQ
Shared flanks, not repeated: GGGAGUUCUACAGUCCGACGAUC … UGGAAUUCUCGGGUGUCAAGG
Strand = CAAGUCCUGUGCUACACAUCGUAUGUACCGAAUCGGAAAAAAAGGAAAAAGGUGGAAAGUAUUAUGUUACGCCGUUCGGAUCUGCACUUC; result = -1.87
Strand = ACCAUGCAGGUGGGCAUCUUUGGGAAGUGGGGCAAGGGGGGGAUAGGUAGGGGGGUAACACUUUGGGAACAGGUGGUCCCAGGUCGUUUC; result = 2.14
Strand = CCUGUGCUACACAUCGUAUGUACCGAAUCGGGGAAAAAAGGGGAAAAAAGGGGAAAAAAGGAAAGUAUUAUGUUACGCCGUUCGGAUCUG; result = -1.6
Strand = UGGCCCUGGUGGCAUGCGGGGAGGAAGAGGUGGCCUCAUGGAUCGUGGUGGUCCCGGUGGAAUGAUCAGAGGUGGCCGUGGUGGAGACAG; result = 1.88
Strand = CAAGUCCUGUGCUACACAUCGUAUGUACCGAAUCGGUUUUUUUGGUGGAAAAAGGAAAGUAUUAUGUUACGCCGUUCGGAUCUGCACUUC; result = -1.68
Strand = UGGGAGGUGGAUUUUGGUUAUUUUUUUAGCUCAUUUCCAGGGGUGGGAAUUUUUUUUUAAUAUGUGUCAUGAAUAAAGUUGUUUUUGAAA; result = 3.26
Strand = AGUCCUGUGCUACACAUCGUAUGUACCGAAUCAAAUUUUUUUAAAUUUAAAUUUAAAAAAGUAUUAUGUUACGCCGUUCGGAUCUGCACU; result = -2.71
Strand = GUCCUGUGCUACACAUCGUAUGUACCGAAUCGGGGUGGGGUUUUUUUGGGGUUUGGGGAAAGUAUUAUGUUACGCCGUUCGGAUCUGCAC; result = 1.08
Strand = GCAGGAAGUACAAACAAAUGGAAAUGCUUCGGAUAGUGGCAGGGGUGGGGGUUGCUAAGGAAAGGGUGGGAUGGGAGUGGGUAAAGAGUU; result = 1.43
Strand = CCUCAAGUCCUGUGCUACACAUCGUAUGUACCGAAUCGGUUGGGUUGGUUGGGAAAGUAUUAUGUUACGCCGUUCGGAUCUGCACUUCCA; result = -0.901

Sample 3 — technique: EMSA with sequencing; form: double-stranded DNA, one strand shown; sample: in vitro; tested at: 10 and 20 nM; reference: negative control set to 0; direction: higher = stronger binding; measurement: normalised bound fraction
Target: Hepatocyte nuclear factor 3-alpha (Foxa1, Mus musculus, UniProt P35582, residues 1-468, full length assumed)
Setting: whole designed probe, mean of two concentrations, ends assumed
Shared flanks, not repeated: GTGAGCGGTGCCCATTGATGGGGAAC … TTTCACTGGGATCGTGGGGAC
Construct (chain): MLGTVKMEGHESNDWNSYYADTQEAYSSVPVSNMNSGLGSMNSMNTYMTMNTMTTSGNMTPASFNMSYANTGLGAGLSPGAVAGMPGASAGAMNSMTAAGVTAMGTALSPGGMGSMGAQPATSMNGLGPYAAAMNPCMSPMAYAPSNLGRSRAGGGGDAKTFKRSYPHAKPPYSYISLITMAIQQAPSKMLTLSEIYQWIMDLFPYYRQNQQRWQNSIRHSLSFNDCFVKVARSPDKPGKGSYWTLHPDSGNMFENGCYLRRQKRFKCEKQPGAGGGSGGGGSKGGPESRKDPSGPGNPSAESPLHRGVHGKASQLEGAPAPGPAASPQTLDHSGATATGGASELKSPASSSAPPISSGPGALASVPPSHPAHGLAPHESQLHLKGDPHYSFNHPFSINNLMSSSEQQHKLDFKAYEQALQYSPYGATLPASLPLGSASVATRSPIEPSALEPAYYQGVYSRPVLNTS
Strand = ATCTTCCCCCTCTTCCTTGCCCCACCAGCTCACCTTCCCGGGTTATTTGCAGATAGGAAAATAAATAAAGCCGGCATTCGTTAACGCAGTTCTGGCGCAAACTGCTGTTTGCTCTGGATCTAACATGGTCCTTTGGCGAGGCGTGGCTCCGGGAGAGCAAAGCACCGTGTCAGGGCCATGATCCGGGGTGGCC; result = 0.346 ratio
Strand = ATCTTCCCCCTCTTCCTTGCCCCACCAGCTCACCTTCCCGGGTATCTGCAAATAAGGAAAATAAATAAAGCCGGCATTCGTTAACCCTCTTCTGGCGCAAACTGCACATTGGTCTGGATGAATCATGGTCCTTTGGCGACGCCAGGCTCCGGGAGAGCAAAGCACCGTGTCAGGGCCATGATCCGGGGTGGCC; result = 0.319 ratio
Strand = TCGCATATAACTCTTCTACAGAGGAATCTAGACTTGGTGAATGCACCATTGTTCTCCGAAGGGCCCCTCCACCTAAAACGGGGCAGGAACCAATGTAATCTCCGGCGTTAGTGGGTCAGGTAAGTGATCCTGAGGCATAGGGGGTGAGGTAGCGTGAGTTAGCATCAGGCTCATATAGAGGACGCAATAAAGA; result = -0.079 ratio
Strand = CCAAGAAAAAGAGCCTTTGGGTGAGTGCACAGCACCCCTCTGTCTTAGGTCCCCAGATATATCTCAATTTGGGCTTCTTCTGGAACATGAAACTATTTACTTTGAGTTTCCTACGAAAACATAGTGCTGGCCTTAGACTTCCTATCCTGAAACCCCACGTCTATTTCCCAACCTCATGCATGGAAAAGTGCTC; result = 0.217 ratio
Strand = ATCTTCCCCCTCTTCCTTGCCCCACCAGCTCACCTTCCCGGGTTATTTGCAGATAGGAAAATAAATAAAGCCGGCATTCGTTAACGCAGTTCTGGCGCAAACTGCTGTTTGCTCTGGATCTAACATGGTCCTTTGGCGAGGCGTGGCTCCGGGAGAGCAAAGCACCGTGTCAGGGCCATGATCCGGGCTCGCC; result = 0.347 ratio
Strand = GCAGGTCCTGGAATCTGTCAGGGGTGGGACTCTGCCATCTTGTGGTTCAATAAGCTCTCCAGATGATTCTGATGCACATGTTTGAGAGCCACTAGATTACATATAGCAGAGAAACCACCTGTCTCTCACCTCAAAGCTGACTCACCTGCAGAAACAATGAAAGATGATAATGACAGCCCCCCCAAAATACCTC; result = -0.0422 ratio
Strand = CTTACATGCAATTGCTTAATATAATATAGCTTTCCTCTCAATTTTACAAAATTAAGATCTTACTTGGCTAATTCTAAGACACCTAGGAACAGTGTAATTTTGGCTCAGAATTGCCAGTGCCCAGACTGGAATTTCACTGAATGAATATAATCATTTTCTCCTTAAAGTAACCTAAAATAAACCCCTCCAAAAA; result = 0.0172 ratio
Strand = GCTTAAACCAATAAAACATTTATCTCACAGTTTCTGTGGGTCAGGAATCCAGGAGTGGCTTTGCTGGGTGGTTCTGCCTCAGGGTATCTGCCCTGTTTACAGTCATGCTGTTGGCTGGGCTGCAGAGGCTGGAAGCCTCTTTGGGGCCAGATGATTTGTTTCTGAGCTTGTTCATGTGGTTGTGGTCAGAAGG; result = 0.181 ratio

Sample 4 — technique: RNA Bind-n-Seq; form: RNA; sample: in vitro; tested at: 100 nM; reference: input RNA pool; direction: higher = stronger binding; measurement: bound/input enrichment
Target: RING finger protein unkempt homolog, zinc fingers 1-6, SBP tag (UNK, Homo sapiens, UniProt Q9C0B0, residues 30-357)
UniProt Q9C0B0, sequence (30-357, looked up): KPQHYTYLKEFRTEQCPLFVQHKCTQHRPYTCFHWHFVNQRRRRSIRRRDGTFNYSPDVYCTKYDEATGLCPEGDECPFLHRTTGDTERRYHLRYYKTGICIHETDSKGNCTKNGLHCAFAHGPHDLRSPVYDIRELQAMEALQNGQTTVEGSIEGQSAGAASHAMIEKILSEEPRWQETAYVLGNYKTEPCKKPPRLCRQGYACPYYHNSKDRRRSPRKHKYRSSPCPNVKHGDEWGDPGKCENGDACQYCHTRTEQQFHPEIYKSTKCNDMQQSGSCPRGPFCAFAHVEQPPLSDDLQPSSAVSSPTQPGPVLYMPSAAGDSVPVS
Setting: RNA with constant flanks, vertebrate orthologous sites, ends assumed
Shared flanks, not repeated: GGGAGUUCUACAGUCCGACGAUC … CAACAGAGGAUUGAGCAUCA
Strand = GUGGGGAUCGGGGUGGGGUGGGAAGAAGAUGUAUGGACGUUACUGGCAUUUUUAAGUGUUAAGAGUUUUUUGUGUUGUUGUUGUUUUUUUUCCUCUCGUUUUGUUCUUCCCCUUUAAUUA; result = 1.14 ratio
Strand = CAUGCAUAUAAAAUGUGUAUCAAACGUUGGAUAUAGAAUGAAACUGUCACUUAAAAUAGCACUGUUAUAAUUAAGCUACAAAAAGGUUUCCUUAAACCAGAGCUGCACUGCCCUCAUCUG; result = 0.933 ratio
Strand = CCCUGGGCUUAGUGACUCUGACUGAGCUAGGCUUGUGGUGUUUUGUUUUUUGUUUUGUUUUGGUAUUUUGGGUUUUUUUGGUGUUUUUUUUGUUGUUGUUGUUGUUUUUAAUUUAAAGAC; result = 1.04 ratio
Strand = GUAUACCCCUCUCCCUGUGAUAUUUAAAAUAUGCACAGUCCUAUUUUUUCUAAAUGAUUCUAGUAAUUUUCUAGCAAUAUCUAUCUCUUACCUGUUAUUUAUCAAUUUUCCCCUUAAGUG; result = 5.99 ratio
Strand = AACAGUUUAGAUAUUCUUUUAAUUUUUUCUUUUCCCUUAAUCCUUUCUUAUUUUUAAAAAUAGUUCUUUUGUAAUGUGGUGUUCAAAACGAAAUUGAAAACAGGCACCUCUCCUUAAAAC; result = 9.34 ratio
Strand = GAACCCCAGUUUGUAUGUACAUUAUUCACAUUCCUCUGUUGUAUUUGGGAAAAAAGACAUUUUAGCCUUUUUAAGGUUGUUAAUUUAAUUUCAUGUUAUUUGGUUGCAUGAAGUUGCCCU; result = 0.347 ratio
Strand = AUCCUUUCGUGCUGUCCCCAGCCAGGGCCGAGGACCAGACAUUUCACCGAGGACCUGCAUUUCAAACAAUUUUUUAAAUUGUUGUACAAGAAGAGAUGUGCCAGAAACAGCAUCUCCAAG; result = 0.3 ratio
Strand = AUAUGUGGGGUAGCCUUGGCCCCUGCCUUGGCCUUACCUCUCCUCCCUGUCACCUGUCCCUAGUUAUUUUUUUUUUAACCACCACGUGAUUAUGGUCGGUGCUGCCUUUUCCCGACCUGC; result = 9.31 ratio
Strand = AUCUCUCACUUUAUAUAUCCAAAAAUGGCUUUUAAUUUUUCAAGACUUGCUGGUUUUAAUUAGCUCUGCCCUCAUAAGGUGAUGCUACAGUCCACCACAGAGCAGUGGUGUGAAUGGGUU; result = 0.527 ratio
Strand = CCCCGAUUUUAGAUGUGAUAUCUAGGUUUUCAUUCCAGUUUGUUUUUGUCUUUUCUUGUUUAGAUACCAAUCUUUUAAAUUCUUGCAUUUUAGUAAGAAAGCUACCUUUUUAUGGAUGUU; result = 1.47 ratio
Strand = AAGCCCUAGUUCUUGAACCAACACCCAUAAAAGAUUUAGAAAAAAGUUUACAACAUAAUCUAGUUUACUGAAGACGCCUUGUGCUAGAAUACUUUUUAAAAAGUAUUUUUGAAUACCAUU; result = 0.495 ratio

Some of these lines once more (sample 1):
Strand = ATAGCCGA; result = 0.0709
Strand = AAGGGATG; result = -0.232
Strand = CTTAAATA; result = -0.0611
Strand = TCTAACAA; result = -0.0485
Strand = TGATGAAA; result = -0.227
Strand = ACTCCCAG; result = -0.144
Strand = GAGCGGCA; result = 0.26
